Assay results gathered from unrelated publications.
Each numbered part is a random draw from the data of one study; scales do not carry over between parts.
Sequence of UniProt P51451 (whole entry, looked up): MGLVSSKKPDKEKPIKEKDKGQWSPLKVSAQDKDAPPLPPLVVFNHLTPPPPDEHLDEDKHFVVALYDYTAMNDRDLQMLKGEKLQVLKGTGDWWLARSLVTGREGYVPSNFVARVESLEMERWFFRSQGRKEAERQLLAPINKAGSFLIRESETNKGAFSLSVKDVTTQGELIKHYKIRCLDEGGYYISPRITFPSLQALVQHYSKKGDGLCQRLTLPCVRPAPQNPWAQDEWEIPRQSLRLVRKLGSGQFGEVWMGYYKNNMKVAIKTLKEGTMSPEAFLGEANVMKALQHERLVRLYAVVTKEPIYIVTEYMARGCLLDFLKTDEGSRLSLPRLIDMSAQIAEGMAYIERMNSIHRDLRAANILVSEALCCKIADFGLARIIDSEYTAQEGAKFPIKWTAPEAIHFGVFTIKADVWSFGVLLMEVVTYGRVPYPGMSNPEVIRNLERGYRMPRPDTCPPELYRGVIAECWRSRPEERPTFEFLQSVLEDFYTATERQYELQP
Sequence of UniProt O94921 (whole entry, looked up): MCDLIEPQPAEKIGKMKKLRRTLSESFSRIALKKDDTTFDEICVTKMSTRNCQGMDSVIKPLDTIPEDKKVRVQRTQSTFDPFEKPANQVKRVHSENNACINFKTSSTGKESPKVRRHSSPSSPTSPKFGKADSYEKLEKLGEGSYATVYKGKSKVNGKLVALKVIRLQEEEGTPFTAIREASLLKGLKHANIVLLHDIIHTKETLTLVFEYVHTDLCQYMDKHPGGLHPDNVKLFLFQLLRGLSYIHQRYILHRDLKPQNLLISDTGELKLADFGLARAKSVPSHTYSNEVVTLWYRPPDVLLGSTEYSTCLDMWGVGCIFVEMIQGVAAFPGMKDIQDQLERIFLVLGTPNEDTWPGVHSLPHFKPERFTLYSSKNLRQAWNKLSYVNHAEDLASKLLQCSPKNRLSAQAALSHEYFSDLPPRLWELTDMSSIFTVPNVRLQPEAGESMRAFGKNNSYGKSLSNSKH
Sequence of UniProt O15530 (whole entry, looked up): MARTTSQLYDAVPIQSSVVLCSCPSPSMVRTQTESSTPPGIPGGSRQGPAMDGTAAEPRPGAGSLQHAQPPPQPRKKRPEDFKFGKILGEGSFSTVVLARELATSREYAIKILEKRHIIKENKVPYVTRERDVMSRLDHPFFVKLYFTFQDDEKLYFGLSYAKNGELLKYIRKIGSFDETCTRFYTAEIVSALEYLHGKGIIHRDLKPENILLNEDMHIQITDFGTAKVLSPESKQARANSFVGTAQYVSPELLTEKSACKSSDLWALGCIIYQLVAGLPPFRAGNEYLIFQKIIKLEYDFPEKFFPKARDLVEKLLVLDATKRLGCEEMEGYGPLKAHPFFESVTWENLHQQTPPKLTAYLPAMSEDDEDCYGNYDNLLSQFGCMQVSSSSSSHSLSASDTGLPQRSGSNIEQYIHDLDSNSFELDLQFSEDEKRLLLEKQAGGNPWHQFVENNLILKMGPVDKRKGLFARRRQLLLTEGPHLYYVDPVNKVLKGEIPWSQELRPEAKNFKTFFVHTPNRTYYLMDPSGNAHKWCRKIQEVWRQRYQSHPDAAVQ
Sequence of UniProt Q00534 (whole entry, looked up): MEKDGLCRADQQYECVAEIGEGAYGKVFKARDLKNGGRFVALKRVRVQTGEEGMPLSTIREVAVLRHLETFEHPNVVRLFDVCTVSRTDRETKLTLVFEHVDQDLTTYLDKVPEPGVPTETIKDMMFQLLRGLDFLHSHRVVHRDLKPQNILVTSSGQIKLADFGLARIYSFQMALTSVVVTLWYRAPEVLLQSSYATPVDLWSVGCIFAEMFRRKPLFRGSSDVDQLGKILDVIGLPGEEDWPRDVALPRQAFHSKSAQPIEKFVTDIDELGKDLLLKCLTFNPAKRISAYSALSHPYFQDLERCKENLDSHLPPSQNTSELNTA
Sequence of UniProt Q8TDC3 (whole entry, looked up): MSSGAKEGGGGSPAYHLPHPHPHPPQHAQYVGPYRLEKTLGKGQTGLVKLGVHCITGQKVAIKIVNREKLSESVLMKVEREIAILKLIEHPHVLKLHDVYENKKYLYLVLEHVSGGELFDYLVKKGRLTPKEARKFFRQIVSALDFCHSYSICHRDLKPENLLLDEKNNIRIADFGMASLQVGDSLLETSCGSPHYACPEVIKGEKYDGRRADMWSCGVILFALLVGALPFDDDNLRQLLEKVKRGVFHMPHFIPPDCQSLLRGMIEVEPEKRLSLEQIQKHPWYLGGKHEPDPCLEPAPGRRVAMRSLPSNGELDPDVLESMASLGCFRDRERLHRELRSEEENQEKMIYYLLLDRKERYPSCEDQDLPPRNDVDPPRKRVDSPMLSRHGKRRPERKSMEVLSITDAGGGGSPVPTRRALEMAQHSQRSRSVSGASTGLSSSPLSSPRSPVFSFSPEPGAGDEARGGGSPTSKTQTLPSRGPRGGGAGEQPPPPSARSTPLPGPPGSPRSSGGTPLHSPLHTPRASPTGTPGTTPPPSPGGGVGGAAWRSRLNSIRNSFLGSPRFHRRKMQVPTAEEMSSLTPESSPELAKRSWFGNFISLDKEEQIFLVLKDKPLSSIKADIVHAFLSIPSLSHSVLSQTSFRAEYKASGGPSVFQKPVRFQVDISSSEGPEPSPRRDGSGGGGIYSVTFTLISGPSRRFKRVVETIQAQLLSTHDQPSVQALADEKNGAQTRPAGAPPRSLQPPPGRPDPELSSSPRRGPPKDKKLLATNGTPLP
Sequence of UniProt O95819 (whole entry, looked up): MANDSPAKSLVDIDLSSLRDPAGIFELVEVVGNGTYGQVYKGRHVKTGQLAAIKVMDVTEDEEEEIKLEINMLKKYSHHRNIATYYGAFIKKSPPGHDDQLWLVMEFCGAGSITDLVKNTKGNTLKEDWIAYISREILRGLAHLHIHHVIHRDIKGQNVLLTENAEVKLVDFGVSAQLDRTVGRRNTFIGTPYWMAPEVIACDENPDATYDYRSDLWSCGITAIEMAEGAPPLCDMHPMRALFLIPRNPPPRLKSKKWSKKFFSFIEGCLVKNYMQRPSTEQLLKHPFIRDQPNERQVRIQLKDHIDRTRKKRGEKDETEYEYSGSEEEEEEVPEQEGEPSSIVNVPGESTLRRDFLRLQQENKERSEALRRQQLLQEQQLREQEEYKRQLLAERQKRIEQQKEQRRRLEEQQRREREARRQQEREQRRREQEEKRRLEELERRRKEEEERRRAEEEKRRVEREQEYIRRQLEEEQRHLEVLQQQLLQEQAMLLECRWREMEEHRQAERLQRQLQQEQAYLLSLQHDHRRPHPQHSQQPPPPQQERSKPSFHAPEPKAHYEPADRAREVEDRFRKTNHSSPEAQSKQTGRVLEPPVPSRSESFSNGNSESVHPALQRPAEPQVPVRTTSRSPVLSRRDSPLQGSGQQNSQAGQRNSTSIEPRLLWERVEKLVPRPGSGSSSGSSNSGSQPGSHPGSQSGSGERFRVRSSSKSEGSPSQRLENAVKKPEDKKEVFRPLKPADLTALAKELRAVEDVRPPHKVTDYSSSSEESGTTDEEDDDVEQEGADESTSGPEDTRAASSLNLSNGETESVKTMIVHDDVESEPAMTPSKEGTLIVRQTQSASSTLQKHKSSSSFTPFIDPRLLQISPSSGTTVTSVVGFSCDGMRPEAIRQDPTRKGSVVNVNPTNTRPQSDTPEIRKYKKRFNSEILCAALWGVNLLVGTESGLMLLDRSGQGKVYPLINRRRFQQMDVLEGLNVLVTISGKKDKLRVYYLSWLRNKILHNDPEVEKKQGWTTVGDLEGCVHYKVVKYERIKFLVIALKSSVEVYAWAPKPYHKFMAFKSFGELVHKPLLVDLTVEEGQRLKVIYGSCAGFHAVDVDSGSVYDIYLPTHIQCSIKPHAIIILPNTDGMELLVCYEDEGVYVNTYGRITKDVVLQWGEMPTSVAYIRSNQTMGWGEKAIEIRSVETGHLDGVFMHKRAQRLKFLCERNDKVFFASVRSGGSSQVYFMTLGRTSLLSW

Series 1
Target: Sal-like protein 4, full length isoform A (SALL4, Homo sapiens, UniProt Q9UJQ4, residues 1-1053)
Sequence of UniProt Q9UJQ4 (whole entry, looked up): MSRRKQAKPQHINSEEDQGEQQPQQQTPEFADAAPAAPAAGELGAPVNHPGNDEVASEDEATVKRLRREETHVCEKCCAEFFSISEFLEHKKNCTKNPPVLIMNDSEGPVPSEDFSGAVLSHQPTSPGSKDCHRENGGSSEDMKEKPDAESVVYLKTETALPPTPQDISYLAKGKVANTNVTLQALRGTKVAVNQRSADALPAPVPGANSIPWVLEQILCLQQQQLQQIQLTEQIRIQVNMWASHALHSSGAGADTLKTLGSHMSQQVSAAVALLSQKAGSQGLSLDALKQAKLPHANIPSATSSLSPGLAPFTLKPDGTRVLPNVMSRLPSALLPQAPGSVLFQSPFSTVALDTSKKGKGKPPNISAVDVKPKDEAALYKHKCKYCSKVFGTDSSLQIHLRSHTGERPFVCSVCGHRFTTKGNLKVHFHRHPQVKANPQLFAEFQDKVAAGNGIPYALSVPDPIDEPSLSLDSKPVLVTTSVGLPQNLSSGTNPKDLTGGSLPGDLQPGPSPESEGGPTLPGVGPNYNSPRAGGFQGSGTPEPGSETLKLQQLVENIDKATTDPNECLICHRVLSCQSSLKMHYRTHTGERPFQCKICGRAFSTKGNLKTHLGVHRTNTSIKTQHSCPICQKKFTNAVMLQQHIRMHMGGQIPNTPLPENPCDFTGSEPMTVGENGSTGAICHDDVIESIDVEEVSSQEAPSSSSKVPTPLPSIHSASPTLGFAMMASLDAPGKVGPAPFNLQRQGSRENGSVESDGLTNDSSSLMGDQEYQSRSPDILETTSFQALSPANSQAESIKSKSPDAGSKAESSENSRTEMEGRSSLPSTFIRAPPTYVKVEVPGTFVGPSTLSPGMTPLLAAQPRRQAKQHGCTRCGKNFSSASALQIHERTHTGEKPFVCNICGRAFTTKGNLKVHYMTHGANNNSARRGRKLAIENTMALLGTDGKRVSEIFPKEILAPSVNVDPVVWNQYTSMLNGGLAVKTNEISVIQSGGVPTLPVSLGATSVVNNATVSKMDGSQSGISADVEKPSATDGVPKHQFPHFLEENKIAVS
Method: universal PBM
Molecule type: double-stranded DNA, one strand shown
Medium: in vitro
Concentration: 600 nM
Setting: 8-mer, flanks averaged, mean of replicates
Reading: higher = stronger binding
The E-score of `ATTAGTCA` is reported as 0.203.
The E-score of `ACATCTGG` is reported as 0.00419.
`CATCATAC` has an E-score of 0.332.
`ACAGTCGA` gave an E-score of -0.15.
`CATCGGCC` has an E-score of -0.316.
`CATTGACA` gave an E-score of 0.0955.
`AAGCCTGA` gave an E-score of -0.0358.
The E-score of `AACGTACC` is reported as -0.203.

Series 2
SMILES: CS(=O)(=O)N1CCCC(NC(=O)[C@H](CCC2CCCCC2)NC(=O)c2ccc(CNC(=O)c3cnc4ccccn34)cc2)C1 (stereo partly drawn)
Effect on: cell-free assay
Method: competition with immobilised ligand
Concentration: 0.1 µM
For Mitogen-activated protein kinase kinase kinase 15 (MAP3K15, Homo sapiens, UniProt Q6ZN16): remaining binding read 100%.
It gave 92% for remaining binding (Ankyrin repeat and protein kinase domain-containing protein 1 (ANKK1, Homo sapiens, UniProt Q8NFD2)).
It gave 100% for remaining binding (Proto-oncogene tyrosine-protein kinase Src (SRC, Homo sapiens, UniProt P12931)).
The remaining binding was 100% (Fibroblast growth factor receptor 2 (FGFR2, Homo sapiens, UniProt P21802)).
The remaining binding was 100% (Tyrosine-protein kinase Blk (BLK, Homo sapiens, UniProt P51451)).
The remaining binding was 72% (Serine/threonine-protein kinase BRSK1 (BRSK1, Homo sapiens, UniProt Q8TDC3)).
For Uncharacterized serine/threonine-protein kinase SBK3 (SBK3, Homo sapiens, UniProt P0C264): remaining binding read 66%.
Aurora kinase B (AURKB, Homo sapiens, UniProt Q96GD4) — remaining binding: 95%.
It gave 100% for remaining binding (Cyclin-dependent kinase 14 (CDK14, Homo sapiens, UniProt O94921)).
For Serine/threonine-protein kinase N2 (PKN2, Homo sapiens, UniProt Q16513): remaining binding read 100%.
The remaining binding was 73% (Insulin-like growth factor 1 receptor (IGF1R, Homo sapiens, UniProt P08069)).
The remaining binding was 100% (Phosphatidylinositol 5-phosphate 4-kinase type-2 gamma (PIP4K2C, Homo sapiens, UniProt Q8TBX8)).
The remaining binding was 100% (Dual specificity protein kinase CLK3 (CLK3, Homo sapiens, UniProt P49761)).
The remaining binding was 100% (Serine/threonine-protein kinase SIK2 (SIK2, Homo sapiens, UniProt Q9H0K1)).

Series 3
Compound: c1ccc(-c2n[nH]c3c2oc2ccccc23)cc1
Effect on: enzyme activity
Action: inhibitor
Concentration: 0.5 µM
Reference: control
Ephrin type-B receptor 1 (EPHB1, Homo sapiens, UniProt P54762) — remaining activity: 103%.
It gave 94.7% for remaining activity (3-phosphoinositide-dependent protein kinase 1 (PDPK1, Homo sapiens, UniProt O15530)).
For Testis-specific serine/threonine-protein kinase 2 (TSSK2, Homo sapiens, UniProt Q96PF2): remaining activity read 97.6%.
It gave 93% for remaining activity (Dual specificity tyrosine-phosphorylation-regulated kinase 3 (DYRK3, Homo sapiens, UniProt O43781)).
The remaining activity was 101% (Calcium/calmodulin-dependent protein kinase type II subunit beta (CAMK2B, Homo sapiens, UniProt Q13554)).
It gave 84.4% for remaining activity (Serine/threonine-protein kinase 17A (STK17A, Homo sapiens, UniProt Q9UEE5)).
The remaining activity was 89.1% (Serine/threonine-protein kinase 16 (STK16, Homo sapiens, UniProt O75716)).
Ribosomal protein S6 kinase alpha-6 (RPS6KA6, Homo sapiens, UniProt Q9UK32) — remaining activity: 107%.
The remaining activity was 87.7% (Cyclin-dependent kinase 1, with cyclin B (CDK1, Homo sapiens, UniProt P06493)).
For Homeodomain-interacting protein kinase 4 (HIPK4, Homo sapiens, UniProt Q8NE63): remaining activity read 103%.
Ephrin type-A receptor 4 (EPHA4, Homo sapiens, UniProt P54764) — remaining activity: 95.5%.
It gave 91.5% for remaining activity (Serine/threonine-protein kinase WNK3 (WNK3, Homo sapiens, UniProt Q9BYP7)).
It gave 112% for remaining activity (Ephrin type-B receptor 4 (EPHB4, Homo sapiens, UniProt P54760)).
The remaining activity was 94.9% (Ribosomal protein S6 kinase alpha-5 (RPS6KA5, Homo sapiens, UniProt O75582)).
For Mitogen-activated protein kinase kinase kinase kinase 4 (MAP4K4, Homo sapiens, UniProt O95819): remaining activity read 36.1%.
Tyrosine-protein kinase Srms (SRMS, Homo sapiens, UniProt Q9H3Y6) — remaining activity: 99.5%.
For MAP kinase-activated protein kinase 3 (MAPKAPK3, Homo sapiens, UniProt Q16644): remaining activity read 100%.
Cyclin-dependent kinase 6, with cyclin D3 (CDK6, Homo sapiens, UniProt Q00534) — remaining activity: 91.6%.
Tyrosine-protein kinase receptor UFO (AXL, Homo sapiens, UniProt P30530) — remaining activity: 101%.
For Cyclin-dependent kinase 4, with cyclin D3 (CDK4, Homo sapiens, UniProt P11802): remaining activity read 101%.
For Tyrosine-protein kinase Blk (BLK, Homo sapiens, UniProt P51451): remaining activity read 88.9%.

Series 4
Target: Interferon regulatory factor 5, full length, phosphomimetic (IRF5, Homo sapiens, UniProt Q13568-2, residues 1-514, K96S/S451D/S453D/S456D/S462D)
Method: protein-binding microarray
Molecule type: double-stranded DNA, one strand shown
Medium: in vitro
Concentration: 250 nM
Setting: 60-bp whole probe
With: salmon DNA 0.4 mg/ml
Reference: random background probes
Reading: higher = stronger binding
All sequences stand within: GCCTAGCAC … GTCTTGATTCGCTTGACGCTGCTG
With `TTAGGACTGGGGTAGCGGTTAGTGCTA` the log fluorescence was -0.443 z-score.
`TCATACATGTGTTTAAAACTGTGCTAG` has a log fluorescence of 0.448 z-score.
For `TTAGGTTTCTTTCTCCTTTAGTGCTAG`, the log fluorescence was 2.65 z-score.
`TCATTTTTTGGAATGTCACTGTGCTAG` gave a log fluorescence of 0.779 z-score.
With `TCAGTTCCCTATATAAGACTGTGCTAG` the log fluorescence was 0.254 z-score.
`TGGGTCTTGGTTCTCAGCTTGTGCTAG` has a log fluorescence of -0.796 z-score.
`GACGAGATCAGTTTCGAGACGTGCTAG` gave a log fluorescence of 5.48 z-score.
For `TTAGATTTCGAGTTTCGATTAGTGCTA`, the log fluorescence was 9.1 z-score.

Some of these lines once more (series 3):
It gave 93% for remaining activity (Dual specificity tyrosine-phosphorylation-regulated kinase 3 (DYRK3, Homo sapiens, UniProt O43781)).
The remaining activity was 101% (Calcium/calmodulin-dependent protein kinase type II subunit beta (CAMK2B, Homo sapiens, UniProt Q13554)).
It gave 84.4% for remaining activity (Serine/threonine-protein kinase 17A (STK17A, Homo sapiens, UniProt Q9UEE5)).
The remaining activity was 89.1% (Serine/threonine-protein kinase 16 (STK16, Homo sapiens, UniProt O75716)).
